# Results gathered from unrelated publications.
# Lines come from different studies, so protocols differ. Numbers after ± are the reported error.
SMILES,system,conditions,quantity,value
N=C(N)NCc1ccc(C(=O)NCCCC[C@H](NC(=O)CCCCCCC(=O)NCCCC[C@H](NC(=O)N[C@@H](CCC(=O)O)C(=O)O)C(=O)O)C(=O)O)cc1[211At],"SCID mouse, PC-3 xenografts, brain",21 h,tissue uptake,0.12 ± 0.03 %ID/g
CC[C@H](C)[C@H](NC(=O)[C@@H](Cc1c[nH]c2ccccc12)NC(=O)[C@@H]1CCCN1C(=O)[C@H](CCCCN)NC(=O)[C@H](CCCCN)NC(=O)CCNC(=O)CCNC(=O)CN1CCN(CC(=O)O)CCN(CC(=O)O)CCN(CC(=O)O)CC1)C(=O)N[C@@H](C[Si](C)(C)C)C(=O)O [gallium-68 labelled],"mouse, HT-29 xenograft, nude, prostate","90 min, ex vivo biodistribution, unblocked",tissue uptake,2.25 ± 0.65 %ID/g
C=Cc1cc(O)cc2nc(-c3ccc(O)c([76Br])c3)oc12,"female C57BL/6 mouse, blood","1 h, low dose",tissue uptake,0.4 ± 0.12 %ID/g
COc1cc2ncnc(Oc3cccc(N[11C](=O)Nc4cc(C(C)(C)C(F)(F)F)on4)c3)c2cc1OC,"Balb/c nude mouse, female, A375 melanoma xenograft, tumor","6.6 MBq, 30 min",tissue uptake,1.79 ± 0.07 %ID/g
N=C(N)NCc1ccc(C(=O)NCCCC[C@H](NC(=O)CCCCCCC(=O)NCCCC[C@H](NC(=O)N[C@@H](CCC(=O)O)C(=O)O)C(=O)O)C(=O)O)cc1[131I],"SCID mouse, PC-3 xenografts, lungs",21 h,tissue uptake,0.03 ± 0.01 %ID/g
O=C(O)CC[C@H](NC(=O)O[C@@H](CCCCNC(=O)c1ccc([18F])cc1)C(=O)O)C(=O)O,"mouse, PC-3 PIP/flu xenografts, heart",60 min,tissue uptake,0.25 ± 0.08 %ID/g
COC(=O)C[C@](O)(CCCC(C)(C)OC(C)=O)C(=O)O[C@@H]1C(OC)=C[C@]23CCCN2CCc2cc4c(cc2[C@H]13)OCO4,"CD1 mouse, kidney","subcutaneous, 1 mg/kg, 0.5 h",tissue concentration,679 ng/mL
N=C(N)NCc1ccc(C(=O)NCCCC[C@H](NC(=O)N[C@@H](CCC(=O)O)C(=O)O)C(=O)O)cc1[211At],"SCID mouse, PC-3 xenografts, liver",21 h,tissue uptake,0.33 ± 0.06 %ID/g
CN[C@](C)(C[18F])C(=O)O,"SCID mouse U87 xenograft, lung","120 min, post injection",tissue uptake,1.5 ± 0.2 %ID/g
